{"data": "Experimental data from different studies", "note": "A part holds a random share of what one study measured."}
{"data": "Block 1", "target": "Histone acetyltransferase KAT6A, both winged helices, GST fusion (KAT6A, Homo sapiens, UniProt Q92794, residues 1-181)", "technique": "protein binding microarray", "form": "double-stranded DNA, one strand shown", "matrix": "in vitro", "concentration": "not given", "notes": "8-mer, flanks averaged, mean of 2 arrays, mostly near background", "relative to": "not given", "reading": "higher = stronger binding", "Construct (chain)": "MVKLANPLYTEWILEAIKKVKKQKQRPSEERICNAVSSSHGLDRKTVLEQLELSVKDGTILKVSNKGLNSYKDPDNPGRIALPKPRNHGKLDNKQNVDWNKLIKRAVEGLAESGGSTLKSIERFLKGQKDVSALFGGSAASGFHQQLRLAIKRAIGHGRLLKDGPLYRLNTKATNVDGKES"}
{"Sequence": "AGCGAACC", "E-score": -0.00615}
{"Sequence": "CCCGGTGA", "E-score": 0.144}
{"Sequence": "CTCCGAAA", "E-score": 0.0189}
{"Sequence": "ACAGGTTA", "E-score": -0.164}
{"data": "Block 2", "target": "Interferon regulatory factor 7, full length, phosphomimetic (IRF7, Homo sapiens, UniProt Q92985, residues 1-503, S471D/S472D/S475D/S476D/S477D/S483D/S484D/S487D)", "technique": "protein-binding microarray", "form": "double-stranded DNA, one strand shown", "matrix": "in vitro", "concentration": "2200 nM top", "notes": "60-bp whole probe", "with": "salmon DNA 0.4 mg/ml", "relative to": "random background probes", "reading": "higher = stronger binding", "Construct (chain)": "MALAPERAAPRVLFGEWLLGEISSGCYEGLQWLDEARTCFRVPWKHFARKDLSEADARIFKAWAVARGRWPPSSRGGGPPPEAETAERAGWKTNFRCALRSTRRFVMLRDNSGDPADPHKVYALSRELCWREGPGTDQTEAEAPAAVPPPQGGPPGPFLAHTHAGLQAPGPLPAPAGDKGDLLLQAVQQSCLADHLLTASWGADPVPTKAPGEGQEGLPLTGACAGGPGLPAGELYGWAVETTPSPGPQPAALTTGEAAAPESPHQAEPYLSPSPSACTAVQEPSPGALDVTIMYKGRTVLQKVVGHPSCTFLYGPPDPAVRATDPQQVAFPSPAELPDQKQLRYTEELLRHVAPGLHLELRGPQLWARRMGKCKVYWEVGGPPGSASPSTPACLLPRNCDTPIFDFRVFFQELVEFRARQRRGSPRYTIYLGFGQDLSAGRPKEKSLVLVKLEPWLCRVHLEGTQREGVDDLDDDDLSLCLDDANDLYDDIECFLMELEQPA"}
{"Sequence": "GCCTAGCACTTAGGTTTCGACGTTCGGTTAGTGCTAGTCTTGATTCGCTTGACGCTGCTG", "fitted relative affinity": "2.96 z-score"}
{"Sequence": "GCCTAGCACTTAGATATCAAACTGGATTAGTGCTAGGTCTTGATTCGCTTGACGCTGCTG", "fitted relative affinity": "-0.44 z-score"}
{"Sequence": "GCCTAGCACCATAGAGATGCCTGTCCTCTGTGCTAGGTCTTGATTCGCTTGACGCTGCTG", "fitted relative affinity": "0.46 z-score"}
{"data": "Block 3", "target": "Transcription factor Sp1 (SP1, Homo sapiens, UniProt P08047, residues 1-785, full length assumed)", "technique": "protein-binding microarray", "form": "double-stranded DNA, one strand shown", "matrix": "in vitro", "concentration": "not given", "notes": "k-mer, scored over probes, only values ≥0.25", "reading": "higher = stronger binding", "sequence of UniProt P08047 (whole entry, looked up)": "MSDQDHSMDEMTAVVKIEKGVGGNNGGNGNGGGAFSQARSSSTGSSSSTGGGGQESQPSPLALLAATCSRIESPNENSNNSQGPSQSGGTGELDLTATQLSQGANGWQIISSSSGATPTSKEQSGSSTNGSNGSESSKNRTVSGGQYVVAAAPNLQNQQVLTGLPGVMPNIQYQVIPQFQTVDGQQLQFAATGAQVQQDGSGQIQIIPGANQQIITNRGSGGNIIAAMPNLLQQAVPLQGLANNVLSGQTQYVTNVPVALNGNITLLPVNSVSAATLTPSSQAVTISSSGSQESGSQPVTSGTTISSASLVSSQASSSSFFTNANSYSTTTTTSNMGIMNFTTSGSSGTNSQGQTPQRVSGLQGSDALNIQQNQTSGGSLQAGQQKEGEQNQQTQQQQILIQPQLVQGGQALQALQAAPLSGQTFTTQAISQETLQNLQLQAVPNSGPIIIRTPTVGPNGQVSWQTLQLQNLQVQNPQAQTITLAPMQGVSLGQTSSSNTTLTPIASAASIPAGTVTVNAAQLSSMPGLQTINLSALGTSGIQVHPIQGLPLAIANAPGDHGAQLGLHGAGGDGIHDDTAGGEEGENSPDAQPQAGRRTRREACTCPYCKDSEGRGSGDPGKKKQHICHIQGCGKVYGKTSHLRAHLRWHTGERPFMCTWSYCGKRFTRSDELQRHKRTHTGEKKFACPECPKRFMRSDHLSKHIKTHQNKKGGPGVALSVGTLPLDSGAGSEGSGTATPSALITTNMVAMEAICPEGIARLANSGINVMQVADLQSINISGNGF"}
{"Sequence": "CCCGCCTA", "E-score": 0.313}
{"Sequence": "CAGGGGCG", "E-score": 0.335}
{"Sequence": "AATCCCCA", "E-score": 0.283}
{"data": "Other studies, line by line"}
{"Molecule": "PhoQ, residues 284 288 289 292 302 303 AGHLVA", "target": "PhoP, residues 12 14 15 18 19 FWNTL (Escherichia coli, UniProt P23836)", "assay": "Sort-seq, measured: YFP reporter", "system": "E. coli", "conditions": "PhoQ-PhoP variant library, with: 10 µM Mg2+", "how to read": "relative to: high Mg2+ state, higher = stronger signaling", "quantity": "fold induction", "value": 1.19}
